Measured values from different studies.
Parts stem from different laboratories: compare values within a part only.
UniProt P08588, sequence (whole entry, looked up): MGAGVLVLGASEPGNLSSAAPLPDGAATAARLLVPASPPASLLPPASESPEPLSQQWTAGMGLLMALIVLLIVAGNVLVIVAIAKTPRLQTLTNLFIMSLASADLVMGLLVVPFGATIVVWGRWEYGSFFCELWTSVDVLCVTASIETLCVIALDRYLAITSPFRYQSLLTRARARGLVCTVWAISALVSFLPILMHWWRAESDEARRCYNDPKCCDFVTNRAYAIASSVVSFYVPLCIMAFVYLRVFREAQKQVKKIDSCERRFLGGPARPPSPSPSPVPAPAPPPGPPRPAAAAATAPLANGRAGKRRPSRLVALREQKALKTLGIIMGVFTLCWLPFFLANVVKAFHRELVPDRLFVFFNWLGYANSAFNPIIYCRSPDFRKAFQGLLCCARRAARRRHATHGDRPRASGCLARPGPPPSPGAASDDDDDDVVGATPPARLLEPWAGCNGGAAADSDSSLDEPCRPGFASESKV
UniProt P25021, sequence (whole entry, looked up): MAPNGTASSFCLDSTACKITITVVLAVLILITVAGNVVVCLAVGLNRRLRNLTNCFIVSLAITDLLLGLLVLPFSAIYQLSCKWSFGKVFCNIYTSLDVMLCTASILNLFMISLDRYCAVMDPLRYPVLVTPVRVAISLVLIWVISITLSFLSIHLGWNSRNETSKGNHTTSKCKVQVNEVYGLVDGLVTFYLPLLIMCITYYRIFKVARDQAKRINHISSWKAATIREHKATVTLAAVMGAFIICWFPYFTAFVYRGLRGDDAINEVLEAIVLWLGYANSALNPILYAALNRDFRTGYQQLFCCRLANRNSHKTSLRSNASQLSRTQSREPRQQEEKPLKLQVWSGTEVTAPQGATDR
UniProt P35462, sequence (whole entry, looked up): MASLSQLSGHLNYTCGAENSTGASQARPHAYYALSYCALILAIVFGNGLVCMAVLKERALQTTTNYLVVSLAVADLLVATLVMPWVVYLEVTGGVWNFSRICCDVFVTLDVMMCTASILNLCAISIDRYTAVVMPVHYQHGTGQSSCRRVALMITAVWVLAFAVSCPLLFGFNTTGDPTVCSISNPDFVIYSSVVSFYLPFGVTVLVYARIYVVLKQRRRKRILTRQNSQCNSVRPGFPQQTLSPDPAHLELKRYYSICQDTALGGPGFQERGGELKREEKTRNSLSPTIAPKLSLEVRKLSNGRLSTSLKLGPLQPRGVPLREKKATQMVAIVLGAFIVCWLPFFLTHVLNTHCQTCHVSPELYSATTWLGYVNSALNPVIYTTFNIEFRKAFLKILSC
UniProt P13945, sequence (whole entry, looked up): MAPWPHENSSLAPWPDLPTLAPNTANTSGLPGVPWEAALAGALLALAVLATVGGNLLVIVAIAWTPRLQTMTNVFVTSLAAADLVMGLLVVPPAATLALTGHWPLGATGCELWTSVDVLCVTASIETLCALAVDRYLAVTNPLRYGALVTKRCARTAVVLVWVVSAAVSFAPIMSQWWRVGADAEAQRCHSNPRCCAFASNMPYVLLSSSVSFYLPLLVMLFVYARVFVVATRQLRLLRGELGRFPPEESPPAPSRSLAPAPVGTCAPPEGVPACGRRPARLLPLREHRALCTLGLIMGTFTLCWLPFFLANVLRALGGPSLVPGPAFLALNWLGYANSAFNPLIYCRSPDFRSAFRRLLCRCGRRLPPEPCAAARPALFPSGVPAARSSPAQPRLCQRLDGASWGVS
UniProt P08173, sequence (whole entry, looked up): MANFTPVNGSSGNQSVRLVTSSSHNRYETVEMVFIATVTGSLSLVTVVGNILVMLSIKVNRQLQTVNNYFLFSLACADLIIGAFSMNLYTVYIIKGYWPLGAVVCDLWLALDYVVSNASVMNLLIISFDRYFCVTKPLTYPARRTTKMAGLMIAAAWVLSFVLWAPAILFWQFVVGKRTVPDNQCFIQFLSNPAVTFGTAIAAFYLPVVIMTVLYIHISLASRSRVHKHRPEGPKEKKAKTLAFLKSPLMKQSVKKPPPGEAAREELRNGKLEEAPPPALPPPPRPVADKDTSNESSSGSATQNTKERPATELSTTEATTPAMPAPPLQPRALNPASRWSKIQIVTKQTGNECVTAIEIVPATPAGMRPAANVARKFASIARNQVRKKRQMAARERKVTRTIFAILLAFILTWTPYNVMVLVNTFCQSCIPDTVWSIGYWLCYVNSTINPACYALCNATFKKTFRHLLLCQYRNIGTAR
UniProt Q13164, sequence (whole entry, looked up): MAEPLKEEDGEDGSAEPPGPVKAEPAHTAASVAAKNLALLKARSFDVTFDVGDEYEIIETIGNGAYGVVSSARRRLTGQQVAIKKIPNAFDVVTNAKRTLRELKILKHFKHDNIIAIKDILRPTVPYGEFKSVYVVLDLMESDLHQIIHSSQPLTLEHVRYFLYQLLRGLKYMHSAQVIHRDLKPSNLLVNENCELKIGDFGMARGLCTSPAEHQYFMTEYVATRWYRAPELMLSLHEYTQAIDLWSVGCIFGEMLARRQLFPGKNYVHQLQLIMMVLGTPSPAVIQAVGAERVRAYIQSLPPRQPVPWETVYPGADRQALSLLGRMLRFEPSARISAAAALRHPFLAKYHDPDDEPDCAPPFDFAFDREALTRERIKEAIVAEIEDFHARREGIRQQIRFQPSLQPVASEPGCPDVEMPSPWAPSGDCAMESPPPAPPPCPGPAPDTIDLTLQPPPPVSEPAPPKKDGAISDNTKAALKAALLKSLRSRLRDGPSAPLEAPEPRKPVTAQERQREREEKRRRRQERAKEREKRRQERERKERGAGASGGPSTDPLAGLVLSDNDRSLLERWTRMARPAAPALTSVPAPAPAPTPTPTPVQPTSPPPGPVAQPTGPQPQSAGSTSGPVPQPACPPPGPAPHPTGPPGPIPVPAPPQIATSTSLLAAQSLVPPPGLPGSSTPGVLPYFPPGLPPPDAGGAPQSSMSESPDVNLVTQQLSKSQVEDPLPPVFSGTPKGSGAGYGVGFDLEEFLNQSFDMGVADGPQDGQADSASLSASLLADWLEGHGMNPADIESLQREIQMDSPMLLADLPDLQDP
UniProt O00506, sequence (whole entry, looked up): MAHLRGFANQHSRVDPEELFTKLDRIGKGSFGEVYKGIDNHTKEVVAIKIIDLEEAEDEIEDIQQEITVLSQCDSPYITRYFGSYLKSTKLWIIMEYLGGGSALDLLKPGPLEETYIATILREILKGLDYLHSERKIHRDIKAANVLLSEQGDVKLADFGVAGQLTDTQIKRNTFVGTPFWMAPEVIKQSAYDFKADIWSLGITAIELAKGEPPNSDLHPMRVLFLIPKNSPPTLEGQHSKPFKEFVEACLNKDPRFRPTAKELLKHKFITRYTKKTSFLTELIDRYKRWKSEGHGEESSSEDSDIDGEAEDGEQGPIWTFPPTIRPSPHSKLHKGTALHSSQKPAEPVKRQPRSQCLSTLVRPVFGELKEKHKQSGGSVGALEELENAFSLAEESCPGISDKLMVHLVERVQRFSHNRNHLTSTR
UniProt P07333, sequence (whole entry, looked up): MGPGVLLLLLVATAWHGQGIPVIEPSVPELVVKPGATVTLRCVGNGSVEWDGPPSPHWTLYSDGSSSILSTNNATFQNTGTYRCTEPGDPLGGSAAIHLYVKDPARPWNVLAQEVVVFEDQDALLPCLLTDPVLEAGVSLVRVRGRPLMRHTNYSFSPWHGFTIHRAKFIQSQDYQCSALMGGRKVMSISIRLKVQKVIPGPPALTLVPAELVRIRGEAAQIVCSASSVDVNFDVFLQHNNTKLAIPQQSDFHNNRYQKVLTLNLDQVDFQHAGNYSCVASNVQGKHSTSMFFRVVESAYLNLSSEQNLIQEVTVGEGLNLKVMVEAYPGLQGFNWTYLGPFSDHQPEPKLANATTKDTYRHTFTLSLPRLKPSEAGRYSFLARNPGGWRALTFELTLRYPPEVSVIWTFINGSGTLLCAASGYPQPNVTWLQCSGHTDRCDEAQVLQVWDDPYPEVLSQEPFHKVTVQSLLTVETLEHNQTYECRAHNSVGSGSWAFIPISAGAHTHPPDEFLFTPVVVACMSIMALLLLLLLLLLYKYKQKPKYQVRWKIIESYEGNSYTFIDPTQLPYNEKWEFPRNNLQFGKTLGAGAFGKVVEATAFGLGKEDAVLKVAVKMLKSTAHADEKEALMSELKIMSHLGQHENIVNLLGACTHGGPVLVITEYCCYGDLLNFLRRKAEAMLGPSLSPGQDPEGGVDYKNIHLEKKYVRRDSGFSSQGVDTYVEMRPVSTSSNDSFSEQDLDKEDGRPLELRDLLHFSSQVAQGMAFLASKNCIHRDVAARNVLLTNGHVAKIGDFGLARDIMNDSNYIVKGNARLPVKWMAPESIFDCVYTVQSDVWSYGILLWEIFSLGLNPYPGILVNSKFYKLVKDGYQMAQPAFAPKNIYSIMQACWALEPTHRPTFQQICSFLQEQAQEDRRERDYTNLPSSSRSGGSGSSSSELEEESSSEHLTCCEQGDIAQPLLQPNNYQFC
UniProt P21728, sequence (whole entry, looked up): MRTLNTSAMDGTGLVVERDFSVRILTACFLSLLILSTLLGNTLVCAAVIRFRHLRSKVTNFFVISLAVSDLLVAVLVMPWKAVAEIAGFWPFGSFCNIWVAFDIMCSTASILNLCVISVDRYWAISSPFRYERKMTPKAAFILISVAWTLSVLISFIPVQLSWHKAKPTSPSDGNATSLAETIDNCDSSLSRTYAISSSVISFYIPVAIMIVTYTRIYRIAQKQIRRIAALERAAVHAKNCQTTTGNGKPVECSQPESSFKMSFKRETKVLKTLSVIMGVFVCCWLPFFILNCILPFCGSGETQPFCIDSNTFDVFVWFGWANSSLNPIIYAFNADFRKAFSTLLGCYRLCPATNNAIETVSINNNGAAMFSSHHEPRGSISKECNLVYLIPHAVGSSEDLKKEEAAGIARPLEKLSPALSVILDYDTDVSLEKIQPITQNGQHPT

Sample 1
Organism: Sarcocystis neurona
Read-out: parasite growth
Concentration: 10 µM
Setting: secondary screen
Endpoint: inhibition
CC1(C)O[C@@H]2C[C@H]3[C@@H]4CCC5=CC(=O)C=C[C@]5(C)[C@@]4(F)[C@@H](O)C[C@]3(C)[C@]2(C(=O)CO)O1: -57.4%
CC(C)NCC(O)c1cc(O)cc(O)c1 (stereo not shown): -31.2%
O=C(O[C@@H]1Cc2c(O)cc(O)cc2O[C@@H]1c1cc(O)c(O)c(O)c1)c1cc(O)c(O)c(O)c1: -36.8%
CSc1ccc2c(c1)N(CCC1CCCCN1C)c1ccccc1S2 (stereo not shown): 42.6%

Sample 2
SMILES: O=C(NCc1ncc(C(F)(F)F)cc1Cl)c1ccc2c(c1)C1(CCS(=O)(=O)CC1)[C@@H](C1CC1)N2S(=O)(=O)c1ccc(F)cc1
Read-out: ligand displacement
Concentration: 10 µM
Endpoint: inhibition
HRH2 (Homo sapiens, UniProt P25021): 16.5%
ADRB1 (Homo sapiens, UniProt P08588): -1.82%
HRH3 (Homo sapiens, UniProt Q9Y5N1): 6.92%
ADRB3 (Homo sapiens, UniProt P13945): -0.77%
DRD3 (Homo sapiens, UniProt P35462): 3.82%
DRD1 (Homo sapiens, UniProt P21728): -42.6%
CHRM4 (Homo sapiens, UniProt P08173): -13.4%
ADRA2B (Homo sapiens, UniProt P18089): -1.68%
ADRA1A (Homo sapiens, UniProt P35348): 1.7%

Sample 3
Cell line: A-375
Concentration: 100 µM
Time: 36 h
Endpoint: viability
NCCNc1ccc(NCCN)c2c1C(=O)c1ccncc1C2=O: 0.687%
CN[C@@H]1[C@@H](O[C@H]2O[C@H](CO)[C@@H](N)[C@H](O)[C@H]2O)O[C@H]2C[C@@H](N)[C@@H](O[C@H]3[C@H](O)[C@@H](O)[C@H](N)C[C@@H]3N)O[C@@H]2[C@@H]1O: 102%
Nc1ncnc2c1ncn2[C@@H]1O[C@H](CO)[C@@H](O)[C@H]1O: 98.6%
NC[C@H]1O[C@H](O[C@H]2[C@H](O)[C@@H](O[C@H]3O[C@H](CO)[C@@H](O)[C@H](N)[C@H]3O)[C@H](N)C[C@@H]2N)[C@H](O)[C@@H](O)[C@@H]1O: 109%
CN(C)CCc1c[nH]c2ccc(Cn3cncn3)cc12: 97.8%

Sample 4
Structure (SMILES): Cc1ccc(NC(=O)c2ccnc(C(F)(F)F)c2)cc1-c1cc(OCCO)nc(N2CCOCC2)c1
Read-out: binding
Concentration: 1 µM
Endpoint: remaining binding
STK25 (Homo sapiens, UniProt O00506); competition with immobilised ligand: 100%
WNK3 (Homo sapiens, UniProt Q9BYP7): 70%
CSF1R (Homo sapiens, UniProt P07333); competition with immobilised ligand: 93%
MAPK7 (Homo sapiens, UniProt Q13164): 100%

A few entries again (sample 3):
CN(C)CCc1c[nH]c2ccc(Cn3cncn3)cc12: 97.8%
NC[C@H]1O[C@H](O[C@H]2[C@H](O)[C@@H](O[C@H]3O[C@H](CO)[C@@H](O)[C@H](N)[C@H]3O)[C@H](N)C[C@@H]2N)[C@H](O)[C@@H](O)[C@@H]1O: 109%
CN[C@@H]1[C@@H](O[C@H]2O[C@H](CO)[C@@H](N)[C@H](O)[C@H]2O)O[C@H]2C[C@@H](N)[C@@H](O[C@H]3[C@H](O)[C@@H](O)[C@H](N)C[C@@H]3N)O[C@@H]2[C@@H]1O: 102%
Nc1ncnc2c1ncn2[C@@H]1O[C@H](CO)[C@@H](O)[C@H]1O: 98.6%
